Measured values from different studies.
Each numbered part is a random draw from the data of one study; scales do not carry over between parts. Several values in a cell are separate wells, animals, samples, runs or records.
UniProt Q07002, sequence (whole entry, looked up): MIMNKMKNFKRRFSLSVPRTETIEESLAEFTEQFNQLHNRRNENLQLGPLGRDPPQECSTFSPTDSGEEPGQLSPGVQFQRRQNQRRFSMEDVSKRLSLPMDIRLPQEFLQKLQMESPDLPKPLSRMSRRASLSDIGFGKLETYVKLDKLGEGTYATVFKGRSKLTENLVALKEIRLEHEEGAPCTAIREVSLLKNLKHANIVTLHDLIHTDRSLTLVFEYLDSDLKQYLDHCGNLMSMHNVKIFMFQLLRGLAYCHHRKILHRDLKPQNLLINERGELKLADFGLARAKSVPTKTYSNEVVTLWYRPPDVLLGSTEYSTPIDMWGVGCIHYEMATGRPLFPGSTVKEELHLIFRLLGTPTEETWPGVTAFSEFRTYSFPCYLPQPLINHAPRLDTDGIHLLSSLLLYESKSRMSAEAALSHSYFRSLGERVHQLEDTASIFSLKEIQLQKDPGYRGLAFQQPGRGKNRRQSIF
UniProt O96017, sequence (whole entry, looked up): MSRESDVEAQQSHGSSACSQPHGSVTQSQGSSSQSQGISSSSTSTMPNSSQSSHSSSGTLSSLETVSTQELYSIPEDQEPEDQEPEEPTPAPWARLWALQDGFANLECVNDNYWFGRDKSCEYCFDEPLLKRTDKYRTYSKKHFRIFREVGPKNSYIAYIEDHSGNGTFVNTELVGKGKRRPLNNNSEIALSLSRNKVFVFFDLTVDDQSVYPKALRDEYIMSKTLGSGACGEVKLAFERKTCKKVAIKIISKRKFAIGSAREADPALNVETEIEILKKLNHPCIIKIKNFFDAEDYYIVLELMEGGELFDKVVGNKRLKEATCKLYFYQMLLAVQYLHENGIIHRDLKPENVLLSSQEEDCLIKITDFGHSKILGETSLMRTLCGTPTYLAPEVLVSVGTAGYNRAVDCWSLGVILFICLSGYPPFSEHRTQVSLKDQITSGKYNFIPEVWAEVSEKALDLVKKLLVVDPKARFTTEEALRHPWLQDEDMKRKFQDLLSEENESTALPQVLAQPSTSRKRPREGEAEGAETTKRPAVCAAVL
UniProt P10721, sequence (whole entry, unmodified, looked up): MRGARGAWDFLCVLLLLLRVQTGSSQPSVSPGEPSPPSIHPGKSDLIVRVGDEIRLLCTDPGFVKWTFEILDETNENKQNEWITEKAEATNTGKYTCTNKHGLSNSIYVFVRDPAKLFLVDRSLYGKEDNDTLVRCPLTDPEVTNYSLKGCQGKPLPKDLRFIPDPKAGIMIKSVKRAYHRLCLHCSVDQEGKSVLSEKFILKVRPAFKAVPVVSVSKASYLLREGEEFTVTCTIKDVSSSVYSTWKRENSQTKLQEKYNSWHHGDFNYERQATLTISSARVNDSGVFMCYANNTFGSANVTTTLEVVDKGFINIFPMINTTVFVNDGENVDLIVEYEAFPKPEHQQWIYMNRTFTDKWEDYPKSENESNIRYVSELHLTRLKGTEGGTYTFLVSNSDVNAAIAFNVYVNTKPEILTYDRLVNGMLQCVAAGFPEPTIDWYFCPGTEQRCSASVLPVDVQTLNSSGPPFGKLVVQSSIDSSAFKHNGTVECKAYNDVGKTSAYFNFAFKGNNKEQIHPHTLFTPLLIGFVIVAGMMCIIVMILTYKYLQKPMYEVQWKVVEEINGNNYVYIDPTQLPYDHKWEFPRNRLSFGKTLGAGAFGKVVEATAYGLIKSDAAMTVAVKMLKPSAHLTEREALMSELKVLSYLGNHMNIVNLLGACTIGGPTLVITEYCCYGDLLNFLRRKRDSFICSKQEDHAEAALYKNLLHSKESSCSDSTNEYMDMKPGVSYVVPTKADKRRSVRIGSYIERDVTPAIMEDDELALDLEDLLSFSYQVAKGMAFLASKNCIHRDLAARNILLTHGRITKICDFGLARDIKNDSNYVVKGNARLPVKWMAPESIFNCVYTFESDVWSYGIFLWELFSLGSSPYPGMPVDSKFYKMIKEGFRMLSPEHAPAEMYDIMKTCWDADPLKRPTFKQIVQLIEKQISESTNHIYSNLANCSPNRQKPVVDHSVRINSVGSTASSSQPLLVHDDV
UniProt Q32MK0, sequence (whole entry, looked up): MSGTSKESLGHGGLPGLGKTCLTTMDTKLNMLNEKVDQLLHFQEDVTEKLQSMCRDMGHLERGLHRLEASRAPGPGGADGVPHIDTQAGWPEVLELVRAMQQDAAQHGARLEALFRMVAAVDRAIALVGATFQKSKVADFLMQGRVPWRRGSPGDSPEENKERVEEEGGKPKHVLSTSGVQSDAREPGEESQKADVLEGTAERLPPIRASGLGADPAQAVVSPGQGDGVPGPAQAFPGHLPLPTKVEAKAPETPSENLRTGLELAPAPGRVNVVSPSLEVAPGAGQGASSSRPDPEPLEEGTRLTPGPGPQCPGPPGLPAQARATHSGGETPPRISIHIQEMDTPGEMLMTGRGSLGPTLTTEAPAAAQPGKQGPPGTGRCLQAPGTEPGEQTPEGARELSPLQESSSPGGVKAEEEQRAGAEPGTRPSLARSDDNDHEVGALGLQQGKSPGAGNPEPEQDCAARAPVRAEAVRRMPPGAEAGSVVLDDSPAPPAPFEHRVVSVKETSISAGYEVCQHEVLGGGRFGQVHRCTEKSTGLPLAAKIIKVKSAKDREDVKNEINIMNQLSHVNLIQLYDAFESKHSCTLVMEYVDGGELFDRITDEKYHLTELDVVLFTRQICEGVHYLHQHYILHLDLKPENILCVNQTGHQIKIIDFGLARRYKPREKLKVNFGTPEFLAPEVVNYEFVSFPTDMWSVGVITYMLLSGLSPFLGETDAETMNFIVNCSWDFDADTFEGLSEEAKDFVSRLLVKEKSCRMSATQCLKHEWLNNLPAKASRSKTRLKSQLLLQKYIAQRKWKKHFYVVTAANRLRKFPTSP
UniProt P23443, sequence (whole entry, looked up): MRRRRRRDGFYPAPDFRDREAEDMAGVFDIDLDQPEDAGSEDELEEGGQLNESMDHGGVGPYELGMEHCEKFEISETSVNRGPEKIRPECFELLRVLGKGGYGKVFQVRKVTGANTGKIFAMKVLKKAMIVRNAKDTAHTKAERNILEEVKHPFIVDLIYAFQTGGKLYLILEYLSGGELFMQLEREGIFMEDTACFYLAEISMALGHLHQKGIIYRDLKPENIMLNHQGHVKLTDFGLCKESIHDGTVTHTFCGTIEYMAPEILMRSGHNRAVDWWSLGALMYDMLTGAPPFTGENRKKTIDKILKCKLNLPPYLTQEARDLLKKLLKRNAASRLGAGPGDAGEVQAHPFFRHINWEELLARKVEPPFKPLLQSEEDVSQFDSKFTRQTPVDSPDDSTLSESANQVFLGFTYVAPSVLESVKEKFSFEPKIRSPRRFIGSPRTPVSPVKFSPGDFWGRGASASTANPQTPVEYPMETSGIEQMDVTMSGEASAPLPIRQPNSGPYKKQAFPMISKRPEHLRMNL
UniProt Q6PHR2, sequence (whole entry, looked up): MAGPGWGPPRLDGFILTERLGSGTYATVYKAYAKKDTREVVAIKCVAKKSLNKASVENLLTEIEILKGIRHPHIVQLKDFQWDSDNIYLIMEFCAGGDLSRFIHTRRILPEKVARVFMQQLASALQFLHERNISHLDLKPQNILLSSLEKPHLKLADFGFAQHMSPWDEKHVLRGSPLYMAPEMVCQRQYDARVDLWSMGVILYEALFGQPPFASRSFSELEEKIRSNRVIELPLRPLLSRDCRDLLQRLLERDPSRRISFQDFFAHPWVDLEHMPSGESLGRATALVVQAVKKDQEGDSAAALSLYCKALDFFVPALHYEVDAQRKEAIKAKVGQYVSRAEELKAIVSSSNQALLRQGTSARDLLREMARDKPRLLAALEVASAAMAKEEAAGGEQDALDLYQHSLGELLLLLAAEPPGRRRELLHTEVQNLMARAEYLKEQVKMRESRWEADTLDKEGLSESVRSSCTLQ
UniProt Q9Y2U5, sequence (whole entry, looked up): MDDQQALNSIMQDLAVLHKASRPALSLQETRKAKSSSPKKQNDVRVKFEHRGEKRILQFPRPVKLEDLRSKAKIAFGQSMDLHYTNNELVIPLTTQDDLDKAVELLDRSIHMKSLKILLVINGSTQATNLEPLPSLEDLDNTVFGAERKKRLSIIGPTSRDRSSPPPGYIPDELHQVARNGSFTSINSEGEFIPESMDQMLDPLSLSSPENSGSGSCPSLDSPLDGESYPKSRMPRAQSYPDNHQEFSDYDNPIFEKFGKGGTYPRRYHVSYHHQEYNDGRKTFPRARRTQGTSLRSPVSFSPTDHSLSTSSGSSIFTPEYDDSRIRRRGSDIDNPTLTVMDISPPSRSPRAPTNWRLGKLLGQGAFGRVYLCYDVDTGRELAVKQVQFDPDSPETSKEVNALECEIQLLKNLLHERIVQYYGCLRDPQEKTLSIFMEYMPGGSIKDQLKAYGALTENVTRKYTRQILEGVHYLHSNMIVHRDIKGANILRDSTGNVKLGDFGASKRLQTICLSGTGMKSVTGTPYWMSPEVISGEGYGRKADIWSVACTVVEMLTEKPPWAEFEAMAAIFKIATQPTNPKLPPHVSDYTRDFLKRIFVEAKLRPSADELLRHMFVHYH

Series 1
Cell line: mouse MPNST tumor cells
Technique: high-content nuclear imaging
Measured: cell number
Tested at: 10 µM
Time: 12 h
Setting: mean of 2 replicates
Relative to: plate mean
Reading: higher = more cells
Structure (SMILES) | nuclei count
CC(C)OC(=O)C(C)(C)Oc1ccc(C(=O)c2ccc(Cl)cc2)cc1 | 1.41 z-score and -0.227 z-score
N#Cc1cc(C2=Nc3ccc(Br)cc3NC(=O)C2)ccn1 | -0.396 z-score
O=C(NC1Cc2ccccc2N(C[C@@H](O)CO)C1=O)c1cc2cc(Cl)sc2[nH]1 (stereo partly shown) | 0.709 z-score
Cc1cc(C(C)(C)CC(C)(C)C)ccc1OCCOCC[N+](C)(C)Cc1ccccc1 | -4.26 z-score
CC(=O)Nc1nnc(S(N)(=O)=O)s1 | 0.174 z-score and 0.981 z-score and 0.547 z-score
Cc1cn2cc(CC(=O)N3CCC4(CC3)CN(Cc3ccc(-n5nccn5)cc3Cl)C4)nc2s1 | 4.33 z-score
NS(=O)(=O)Cc1noc2ccccc12 | 1.73 z-score and 0.152 z-score and 1.01 z-score
COc1ccccc1OCC(O)CO (stereo not shown) | 1.57 z-score

Series 2
Target: Beta-1 adrenergic receptor (ADRB1, Homo sapiens, UniProt P08588)
UniProt P08588, sequence (whole entry, looked up): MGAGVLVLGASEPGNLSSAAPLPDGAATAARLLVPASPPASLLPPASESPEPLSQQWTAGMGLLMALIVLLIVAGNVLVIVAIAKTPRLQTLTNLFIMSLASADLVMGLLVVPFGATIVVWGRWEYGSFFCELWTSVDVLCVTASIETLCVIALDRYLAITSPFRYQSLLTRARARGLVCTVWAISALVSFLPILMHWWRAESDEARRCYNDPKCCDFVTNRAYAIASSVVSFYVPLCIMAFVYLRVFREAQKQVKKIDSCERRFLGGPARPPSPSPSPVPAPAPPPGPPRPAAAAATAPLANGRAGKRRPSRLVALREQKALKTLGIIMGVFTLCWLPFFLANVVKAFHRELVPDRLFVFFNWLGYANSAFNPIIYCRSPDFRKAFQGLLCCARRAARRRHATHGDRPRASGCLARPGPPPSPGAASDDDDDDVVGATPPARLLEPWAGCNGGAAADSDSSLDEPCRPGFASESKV
Action: agonist
Compound | EC50 [µM]
O=c1oc(Cl)c(Cl)c2ccccc12 | ≥ 100
O=C(Cn1ncc(=O)c2ccccc21)NCC(O)c1ccc(F)c(F)c1 (stereo not shown) | ≥ 100
Cc1cc2oc(=O)cc(COn3nnc4ccc(Cl)cc43)c2cc1Cl | ≥ 100
Cc1nc(CN2CCOCC2C2CCCC2O)nc2ccccc12 (stereo not shown) | ≥ 100
CN(C)CC(O)COc1ccc(CN2CCC(N3CCOC3=O)CC2)cc1 (stereo not shown) | ≥ 100
COc1ccccc1N1CCN(C(=O)Cc2cccs2)CC1 | ≥ 100
Cc1nn(C)c(C)c1CN(Cc1ccc2c(C)cc(=O)oc2c1)C1CC1 | ≥ 100

Series 3
Host: mouse
Matrix: microsomes or S9
Tested at: 2 µM
Time: 0.5 h
Compound | remaining compound [%]
Cc1ccc(C(C)NS(=O)(=O)c2ccc(F)c(F)c2)c(C)c1 (stereo not shown) | < 1
O=C(Nc1n[nH]c2cc(Br)ccc12)c1cc(-c2cccnc2)[nH]n1 | 47
Cc1cc(-c2cc(=O)[nH]c3nc4ccccc4n23)n(C)n1 | 87.4
Cc1nnc(N2CCc3nn(C)c(=O)cc3C2)c(C#N)c1C | > 100
CC1CCN(Cc2nc(N)nc(Nc3ccc(Cl)cc3)n2)CC1 | 34.2
N#Cc1ccc2nc(-n3cncn3)c(-c3ccc(Cl)cc3Cl)c(C#N)c2c1 | > 100

Series 4
Organism: Plasmodium berghei
Action: inhibitor
Cells: Huh-7
Strain: GFP-expressing sporozoites, liver stage
Tested at: 10 µM
Time: 24 h
Relative to: untreated control
SMILES | infection rate
CN(C)c1ccc(O)c2c1C[C@H]1C[C@H]3[C@H](N(C)C)C(O)=C(C(N)=O)C(=O)[C@@]3(O)C(O)=C1C2=O | 10%
CC1(C)S[C@@H]2[C@H](NC(=O)[C@H](N)c3ccccc3)C(=O)N2[C@H]1C(=O)O | 86.9%
CN(C)CCCOc1nn(Cc2ccccc2)c2ccccc12 | 26.3%
NS(=O)(=O)c1cc2c(cc1Cl)N=CNS2(=O)=O | 97.6%
C[C@]12CC[C@@H]3c4ccc(O)cc4CC[C@H]3[C@@H]1C[C@@H](O)[C@@H]2O | 107%
O=C(O)C1=C(CSc2nnnn2CS(=O)(=O)O)CS[C@@H]2[C@H](NC(=O)[C@H](O)c3ccccc3)C(=O)N12 | 93.5%
C[C@H](CS)C(=O)N1CCC[C@H]1C(=O)O | 96%
CC(=O)OCC(=O)[C@@]12OC3(CCCC3)O[C@@H]1C[C@H]1[C@@H]3CCC4=CC(=O)C=C[C@]4(C)[C@@]3(F)[C@@H](O)C[C@@]12C | 105%
Cn1nnnc1SCC1=C(C(=O)O)N2C(=O)[C@@H](NC(=O)[C@H](OC=O)c3ccccc3)[C@H]2SC1 | 110%

Series 5
SMILES: CCC(=O)N[C@H]1CC[C@@H](C(=O)N(C)c2ccc(-c3nc4ccccc4o3)cc2)C1
Observed: cell-free assay
Technique: competition with immobilised ligand
Tested at: 1 µM
target | remaining binding [%]
Ribosomal protein S6 kinase alpha-6, N-terminal kinase domain (RPS6KA6, Homo sapiens, UniProt Q9UK32) | 82
MYLK3 (Homo sapiens, UniProt Q32MK0) | 97
SNRK (Homo sapiens, UniProt Q9NRH2) | 100
FGFR1 (Homo sapiens, UniProt P11362) | 100
MAP2K5 (Homo sapiens, UniProt Q13163) | 16
FLT3 (Homo sapiens, UniProt P36888, D835V) | 73
PIK3CA (Homo sapiens, UniProt P42336, Q546K) | 91
EGFR (Homo sapiens, UniProt P00533, T790M) | 87
CDK7 (Homo sapiens, UniProt P50613) | 79
CDK18 (Homo sapiens, UniProt Q07002) | 100
CDKL2 (Homo sapiens, UniProt Q92772) | 100
CHEK2 (Homo sapiens, UniProt O96017) | 100
Non-receptor tyrosine-protein kinase TYK2, JH1 (TYK2, Homo sapiens, UniProt P29597) | 83
EGFR (Homo sapiens, UniProt P00533, A750P/del747-749) | 97
Tyrosine-protein kinase ABL1, non-phosphorylated (ABL1, Homo sapiens, UniProt P00519, T315I) | 86
Ribosomal protein S6 kinase alpha-3, N-terminal kinase domain (RPS6KA3, Homo sapiens, UniProt P51812) | 88
RPS6KB1 (Homo sapiens, UniProt P23443) | 99
MAP3K2 (Homo sapiens, UniProt Q9Y2U5) | 87
Tyrosine-protein kinase ABL1, phosphorylated (ABL1, Homo sapiens, UniProt P00519, H396P) | 88
EPHA8 (Homo sapiens, UniProt P29322) | 96
KIT (Homo sapiens, UniProt P10721, V559D/V654A) | 89
PLK1 (Homo sapiens, UniProt P53350) | 97
EGFR (Homo sapiens, UniProt P00533, L861Q) | 100
ULK3 (Homo sapiens, UniProt Q6PHR2) | 67
CAMK2B (Homo sapiens, UniProt Q13554) | 94

Excerpt of the above (series 5):
target | remaining binding [%]
FGFR1 (Homo sapiens, UniProt P11362) | 100
MAP2K5 (Homo sapiens, UniProt Q13163) | 16
FLT3 (Homo sapiens, UniProt P36888, D835V) | 73
PIK3CA (Homo sapiens, UniProt P42336, Q546K) | 91
EGFR (Homo sapiens, UniProt P00533, T790M) | 87
CDK7 (Homo sapiens, UniProt P50613) | 79
